Assay results gathered from unrelated publications.
Compare with care: the assays were run in different laboratories. “And” joins repeats or separate records; there may be more than shown.
IL1RL2: Interleukin-1 receptor-like 2 (IL1RL2, Homo sapiens, UniProt Q9HB29)
Chain of UniProt P28482 (whole entry, looked up): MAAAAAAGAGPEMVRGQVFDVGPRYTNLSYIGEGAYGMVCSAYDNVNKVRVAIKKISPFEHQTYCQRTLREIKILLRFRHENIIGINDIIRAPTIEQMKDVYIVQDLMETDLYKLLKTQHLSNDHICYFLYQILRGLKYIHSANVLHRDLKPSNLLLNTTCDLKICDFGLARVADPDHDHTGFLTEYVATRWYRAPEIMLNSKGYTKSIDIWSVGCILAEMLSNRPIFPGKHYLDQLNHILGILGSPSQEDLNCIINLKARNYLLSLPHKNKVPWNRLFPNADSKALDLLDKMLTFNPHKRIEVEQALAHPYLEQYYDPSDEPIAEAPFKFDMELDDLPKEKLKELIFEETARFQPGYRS
Chain of UniProt Q9HB29 (whole entry, looked up): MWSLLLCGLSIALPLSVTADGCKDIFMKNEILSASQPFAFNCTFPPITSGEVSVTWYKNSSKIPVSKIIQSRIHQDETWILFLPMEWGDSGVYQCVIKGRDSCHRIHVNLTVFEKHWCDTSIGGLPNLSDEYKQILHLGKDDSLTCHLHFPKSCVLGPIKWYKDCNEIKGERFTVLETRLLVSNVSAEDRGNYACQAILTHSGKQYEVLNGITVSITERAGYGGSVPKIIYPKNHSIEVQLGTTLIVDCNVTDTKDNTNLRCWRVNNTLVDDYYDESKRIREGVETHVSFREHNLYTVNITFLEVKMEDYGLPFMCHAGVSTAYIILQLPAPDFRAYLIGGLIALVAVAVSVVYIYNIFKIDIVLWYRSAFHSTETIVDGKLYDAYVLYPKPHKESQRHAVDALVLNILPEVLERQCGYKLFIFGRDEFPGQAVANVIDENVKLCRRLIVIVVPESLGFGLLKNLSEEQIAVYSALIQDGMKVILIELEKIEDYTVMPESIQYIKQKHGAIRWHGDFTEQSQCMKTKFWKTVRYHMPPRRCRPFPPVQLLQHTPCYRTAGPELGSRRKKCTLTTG
Chain of UniProt P22612 (whole entry, looked up): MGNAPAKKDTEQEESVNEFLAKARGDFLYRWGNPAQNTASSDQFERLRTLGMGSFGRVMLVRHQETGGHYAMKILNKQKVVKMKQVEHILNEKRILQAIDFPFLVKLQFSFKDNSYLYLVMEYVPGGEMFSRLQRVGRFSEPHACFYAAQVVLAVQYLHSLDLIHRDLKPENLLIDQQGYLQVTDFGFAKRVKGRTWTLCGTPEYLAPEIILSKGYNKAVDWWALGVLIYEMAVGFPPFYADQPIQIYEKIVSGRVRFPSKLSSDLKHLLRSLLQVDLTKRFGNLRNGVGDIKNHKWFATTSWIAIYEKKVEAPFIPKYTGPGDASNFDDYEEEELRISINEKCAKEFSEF
Chain of UniProt Q8TD08 (whole entry, looked up): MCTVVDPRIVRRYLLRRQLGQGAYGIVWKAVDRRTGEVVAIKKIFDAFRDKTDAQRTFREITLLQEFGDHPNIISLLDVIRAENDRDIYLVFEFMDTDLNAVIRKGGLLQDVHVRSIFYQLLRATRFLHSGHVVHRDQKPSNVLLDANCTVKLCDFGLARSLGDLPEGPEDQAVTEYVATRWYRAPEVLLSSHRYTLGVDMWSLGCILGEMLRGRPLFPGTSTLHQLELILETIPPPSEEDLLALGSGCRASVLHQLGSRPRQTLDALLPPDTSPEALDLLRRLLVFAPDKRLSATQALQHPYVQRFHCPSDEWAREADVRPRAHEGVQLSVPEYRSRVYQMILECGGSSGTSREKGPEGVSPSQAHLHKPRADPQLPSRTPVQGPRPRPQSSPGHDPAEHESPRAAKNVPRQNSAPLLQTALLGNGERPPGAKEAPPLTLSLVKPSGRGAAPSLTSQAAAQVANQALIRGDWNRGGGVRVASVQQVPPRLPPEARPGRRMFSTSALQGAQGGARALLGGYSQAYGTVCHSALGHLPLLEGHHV
Chain of UniProt P45983 (whole entry, looked up): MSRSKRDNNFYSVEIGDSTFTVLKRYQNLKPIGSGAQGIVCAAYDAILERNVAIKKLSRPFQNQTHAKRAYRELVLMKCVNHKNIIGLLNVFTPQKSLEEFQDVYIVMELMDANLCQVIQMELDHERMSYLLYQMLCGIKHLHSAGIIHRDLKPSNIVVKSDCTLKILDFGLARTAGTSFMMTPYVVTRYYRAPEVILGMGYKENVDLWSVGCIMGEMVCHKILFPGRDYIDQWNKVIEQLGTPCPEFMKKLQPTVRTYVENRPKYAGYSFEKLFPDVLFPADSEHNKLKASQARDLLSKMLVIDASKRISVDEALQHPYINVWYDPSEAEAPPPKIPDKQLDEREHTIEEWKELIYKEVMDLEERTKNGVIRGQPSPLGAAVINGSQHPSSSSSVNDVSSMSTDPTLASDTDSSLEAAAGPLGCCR
Chain of UniProt O75417 (whole entry, looked up): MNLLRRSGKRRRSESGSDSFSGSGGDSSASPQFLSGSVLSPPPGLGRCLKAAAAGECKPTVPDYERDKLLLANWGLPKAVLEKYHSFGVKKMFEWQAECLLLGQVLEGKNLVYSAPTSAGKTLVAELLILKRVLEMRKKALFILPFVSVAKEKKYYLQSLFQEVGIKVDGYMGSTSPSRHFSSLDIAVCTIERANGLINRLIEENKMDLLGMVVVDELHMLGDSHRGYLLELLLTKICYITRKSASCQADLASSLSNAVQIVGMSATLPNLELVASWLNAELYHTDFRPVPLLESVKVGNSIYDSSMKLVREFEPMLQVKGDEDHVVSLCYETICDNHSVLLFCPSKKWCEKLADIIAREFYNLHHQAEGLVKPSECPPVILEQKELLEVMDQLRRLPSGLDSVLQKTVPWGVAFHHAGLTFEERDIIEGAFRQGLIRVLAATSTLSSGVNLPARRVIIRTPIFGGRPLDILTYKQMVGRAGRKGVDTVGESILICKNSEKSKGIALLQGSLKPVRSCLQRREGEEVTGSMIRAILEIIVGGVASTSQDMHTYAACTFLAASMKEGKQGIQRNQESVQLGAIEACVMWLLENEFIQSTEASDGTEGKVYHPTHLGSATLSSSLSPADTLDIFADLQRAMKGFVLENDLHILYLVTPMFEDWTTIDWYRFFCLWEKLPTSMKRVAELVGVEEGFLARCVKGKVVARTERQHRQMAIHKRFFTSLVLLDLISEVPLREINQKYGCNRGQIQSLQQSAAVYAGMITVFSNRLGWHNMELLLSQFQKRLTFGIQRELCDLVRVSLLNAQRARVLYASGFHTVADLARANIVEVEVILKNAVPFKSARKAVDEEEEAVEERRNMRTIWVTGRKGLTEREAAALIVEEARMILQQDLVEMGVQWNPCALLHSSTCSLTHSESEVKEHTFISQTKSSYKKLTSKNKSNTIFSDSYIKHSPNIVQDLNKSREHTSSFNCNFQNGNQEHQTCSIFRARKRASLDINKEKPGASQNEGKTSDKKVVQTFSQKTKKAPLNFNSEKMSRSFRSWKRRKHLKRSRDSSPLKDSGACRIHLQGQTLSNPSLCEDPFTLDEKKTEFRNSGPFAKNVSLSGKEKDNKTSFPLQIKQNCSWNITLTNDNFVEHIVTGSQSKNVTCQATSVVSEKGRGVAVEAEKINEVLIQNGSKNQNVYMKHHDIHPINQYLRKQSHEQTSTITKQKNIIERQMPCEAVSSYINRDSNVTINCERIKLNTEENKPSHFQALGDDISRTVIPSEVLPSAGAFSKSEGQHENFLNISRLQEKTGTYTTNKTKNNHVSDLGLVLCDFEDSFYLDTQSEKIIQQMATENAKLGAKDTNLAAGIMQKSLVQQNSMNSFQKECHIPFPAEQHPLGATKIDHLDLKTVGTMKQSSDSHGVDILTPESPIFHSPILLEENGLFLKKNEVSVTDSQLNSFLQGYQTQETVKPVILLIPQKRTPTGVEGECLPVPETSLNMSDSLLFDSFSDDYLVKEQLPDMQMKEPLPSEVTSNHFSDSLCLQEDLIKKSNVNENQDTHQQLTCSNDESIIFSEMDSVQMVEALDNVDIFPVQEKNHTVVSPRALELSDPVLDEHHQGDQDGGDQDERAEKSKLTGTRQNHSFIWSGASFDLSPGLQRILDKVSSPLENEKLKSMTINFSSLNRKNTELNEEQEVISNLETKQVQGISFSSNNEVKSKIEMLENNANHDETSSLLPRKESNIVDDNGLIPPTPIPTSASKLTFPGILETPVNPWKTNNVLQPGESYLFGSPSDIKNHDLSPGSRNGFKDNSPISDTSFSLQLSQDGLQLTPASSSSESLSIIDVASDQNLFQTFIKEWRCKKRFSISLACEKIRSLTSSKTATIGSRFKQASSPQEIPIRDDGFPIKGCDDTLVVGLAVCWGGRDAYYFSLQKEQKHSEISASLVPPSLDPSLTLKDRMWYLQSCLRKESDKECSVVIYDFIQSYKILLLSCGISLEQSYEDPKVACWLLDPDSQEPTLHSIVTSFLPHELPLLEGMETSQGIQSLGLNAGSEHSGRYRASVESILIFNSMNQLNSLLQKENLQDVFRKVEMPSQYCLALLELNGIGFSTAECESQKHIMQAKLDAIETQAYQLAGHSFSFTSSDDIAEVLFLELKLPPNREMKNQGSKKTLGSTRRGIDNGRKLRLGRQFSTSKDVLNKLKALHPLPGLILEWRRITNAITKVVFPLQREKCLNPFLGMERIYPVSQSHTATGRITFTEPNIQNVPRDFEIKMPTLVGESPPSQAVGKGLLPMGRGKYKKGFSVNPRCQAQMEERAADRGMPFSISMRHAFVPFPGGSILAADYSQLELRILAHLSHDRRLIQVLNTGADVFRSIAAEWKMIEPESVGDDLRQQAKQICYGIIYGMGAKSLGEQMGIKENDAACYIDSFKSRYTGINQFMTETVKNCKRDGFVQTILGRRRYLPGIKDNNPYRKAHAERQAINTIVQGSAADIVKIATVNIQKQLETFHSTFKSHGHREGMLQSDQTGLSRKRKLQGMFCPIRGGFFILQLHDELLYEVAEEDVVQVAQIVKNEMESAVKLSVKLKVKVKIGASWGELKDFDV

| Structure (SMILES) | tested on | test | system | setting | scale | endpoint | result |
| --- | --- | --- | --- | --- | --- | --- | --- |
| COC(=O)[C@]1(C(C)C)C=C(C(=O)Nc2cccc(C(=O)Nc3ccc(Nc4nccc(-c5cccnc5)n4)c(C)c3)c2)C(=O)CC1 | MAPK8 (Homo sapiens, UniProt P45983) | kinase activity, inhibitor |  | 1.646 µM, unit not given, together with: 10 mM glutathione | baseline: no inhibitor | remaining activity | 0.393 |
| COc1ccccc1-c1ccncc1C(=O)Nc1nnc(OCc2ccc(Cl)cc2)s1 | DNA polymerase theta, helicase domain (POLQ, Homo sapiens, UniProt O75417) | ATPase activity, ADP-Glo |  | 0.48 µM, together with: ATP 400 µM |  | remaining activity | 33% |
| COCC12C(=O)NC3C4(C(OC)CC1O)C1CC5(O)C(OC)C(O)C(OC(C)=O)(C1C5OC(=O)c1ccccc1)C3(O)C(OC)C24 (centres unmarked) | EGFR (Homo sapiens, UniProt P00533) | kinase activity, inhibitor, ProQinase kinase profiling |  | 25 µM | baseline: control | remaining activity | 100% and 97% |
| COC(=O)[C@@]1(C)C=C(C(=O)Nc2cccc(C(=O)Nc3ccc(Nc4nccc(-c5cccnc5)n4)c(C)c3)c2)C(=O)CC1 | MAPK1 (Homo sapiens, UniProt P28482) | enzyme activity, inhibitor |  | 0.5487 µM, unit not given | baseline: vehicle | remaining activity | 0.934 and 0.886 and 0.958 |
| CC(C)[C@@H]1NC(=O)[C@H](Cc2ccccc2)NC(=O)CSC[C@@H](C(N)=O)NC(=O)[C@H](CCC(=O)O)NC(=O)[C@H](CO)NC(=O)[C@H](Cc2c[nH]c3cccc(Cl)c23)NC(=O)[C@H](C2CCCCC2)NC(=O)[C@H](C(C)C)NC(=O)[C@H](Cc2ccc(O)cc2)NC(=O)[C@H](CC(=O)O)NC(=O)[C@H](Cc2c[nH]c3ccccc23)NC(=O)[C@H](Cc2ccc(N)nc2)NC(=O)[C@H](Cc2c[nH]c3ccc(Cl)cc23)NC(=O)[C@H](CCC(=O)O)NC1=O | IL1RL2 | reporter gene (SEAP), inhibitor, HEK-Blue IL-36R reporter | HEK-Blue IL-36R cells | 0.14 µM, 6 h, together with: IL-36β 30 ng/mL |  | remaining activity | 86.1% |
| O=C(c1ccc([C@H]2[C@@H](F)[C@@H](F)C[C@@H](F)[C@H]2F)cc1)N1CCC(F)CC1 |  | liver microsome stability | dog liver microsomes | 1 µM |  | hepatic clearance | 7.3 mL/min/kg |
| N#Cc1cnc2sc(C(=O)O)cc2c1N1CCc2[nH]nc(C(=O)N[C@@H](CC(=O)NCCOCCN3CCOCC3)c3cccc(Br)c3)c2C1 | IL1RL2 | reporter gene (SEAP), inhibitor, HEK-Blue IL-36R reporter | HEK-Blue IL-36R cells | 0.14 µM, 6 h, together with: IL36G 0.01 ng/mL |  | remaining activity | 92.4% |
| C[C@](C(=O)NC1CCOCC1)(c1cncnc1)N(C(=O)[C@H](F)Cl)c1ccc(OC(F)(F)Cl)cc1 | Tryptase gamma (Homo sapiens, UniProt Q9NRR2) | enzyme activity, inhibitor |  | 10 µM |  | remaining activity | 111% |
| Cc1cccc(-c2ccc3nc(NC(=O)C4CCCO4)nn3c2)c1 (centres unmarked) | MAPK15 (Homo sapiens, UniProt Q8TD08) | enzyme activity, Dundee kinase panel |  | 10 µM |  | remaining activity | 86% |
| O=C(Nc1ccc([C@H]2[C@@H](F)[C@@H](F)C[C@@H](F)[C@H]2F)cc1)C1CC1(F)F (some centres unmarked) |  | liver microsome stability | rat liver microsomes | 1 µM |  | hepatic clearance | 10 mL/min/kg |
| Nc1ncc(-c2cc(-c3cnn(CC(F)(F)F)c3)ncc2F)nc1C(=O)NC1CNCC(F)C1 (centres unmarked) | PRKACG (Homo sapiens, UniProt P22612) | enzyme activity |  | 1 µM | baseline: DMSO control | remaining activity | 101% |
| CN(Cc1cc(C2CC2)on1)C(=O)c1cccc(-c2ccc3c(c2)CCO3)c1 | Acetyl-CoA synthetase (Cryptococcus neoformans, UniProt J9VFT1) | enzyme activity, inhibitor, coupled pyrophosphate |  | 781 nM |  | remaining activity | 94.3% and 97.7% |
| O=C=[N][Ru-4]123([n]4c5ccc(O)cc5c5c6c(c7cc(F)c[n+]1c7c54)C(=O)NC6=O)[S+]1CC[S+]2CC[S+]3CC1 (centres unmarked) | EGFR (Homo sapiens, UniProt P00533, L861Q) | enzyme activity |  | 100 nM, human enzyme, together with: 10 µM ATP | baseline: untreated | remaining activity | 111% |
| COc1ccc(NC(=O)Nc2ccc3c(c2)C(=O)N(C(C)CO)CC(C)C(CN(C)Cc2ccc4c(c2)OCO4)O3)cc1 (centres unmarked) | ABL1 (Homo sapiens, UniProt P00519, T315I) | kinase activity |  | 0.03 µM | baseline: control | remaining activity | 98% |
